Measured values gathered from unrelated publications.
A part holds a random share of what one study measured.

Set 1
Target: Prothrombin, mature alpha-thrombin (F2, Homo sapiens, UniProt P00734)
Technique: aptamer microarray, sandwich
Form: DNA with 2'F-ANA
Medium: in vitro
Concentration: 200 nM
Notes: whole 15-mer aptamer, many near background
Added: Cy3 exosite-II aptamer, 400 nM
Direction: higher = stronger binding
Measurement: mean fluorescence intensity
Oligonucleotide: GGTTGGTGTGGTTGG
2'F-ANA at 1 2 5 7 8 9 10 11 13 14 15: 70.1 a.u.
2'F-ANA at 3 4 5 6 7 10 11 13: 47.9 a.u.
2'F-ANA at 2 12 13 14: 189 a.u.
2'F-ANA at 1 2 5 6 7 8 10 11 13 14: 58.8 a.u.
2'F-ANA at 1 2 4 5 8 11 12 13 15: 66.4 a.u.
2'F-ANA at 1 2 3 11 14 15: 74.9 a.u.
2'F-ANA at 3 4 6 7 8 10 11 12 15: 266 a.u.
2'F-ANA at 1 6 7 13: 131 a.u.
2'F-ANA at 7 13: 471 a.u.
2'F-ANA at 1 2 3 4 5 6 8 10 13: 52.5 a.u.
2'F-ANA at 1 2 3 5 6 7 8 9 10 11 12 15: 53.1 a.u.
2'F-ANA at 1 2 7 8 9 12 13 14: 73.6 a.u.
2'F-ANA at 3 4 5 7 13 14: 51.9 a.u.
2'F-ANA at 3 4 6 9 10 14: 194 a.u.
2'F-ANA at 1 2 3 5 7 8 10 12 14 15: 44.7 a.u.
2'F-ANA at 2 4 9 10 11 13 14: 69 a.u.
2'F-ANA at 2 4 5 6 7 8 9 10 11 12 14 15: 50.9 a.u.
2'F-ANA at 1 3 4 5 6 7 11: 52.1 a.u.
2'F-ANA at 1 4 7 8 12 13 14 15: 66.3 a.u.

Set 2
Target: Fragile X messenger ribonucleoprotein 1, C-terminal low-complexity region (Fmr1, Mus musculus, UniProt P35922)
Technique: RNA Bind-n-Seq
Form: RNA
Medium: in vitro
Concentration: 200 nM
Notes: whole 134-nt RNA, ends assumed
Added: 150 mM LiCl
Relative to: input library
Direction: higher = stronger binding
Measurement: log2 enrichment
Each molecule: 7-deaza-guanosine replaces G
Constant ends, left off below: GGGAGUUCUACAGUCCGACGAUC … UGGAAUUCUCGGGUGUCAAGG
GUCCUGUGCUACACAUCGUAUGUACCGAAUCGGCCCCCCGGCCCCCCGGCCCCCCGGGAAAGUAUUAUGUUACGCCGUUCGGAUCUGCAC: 1.32
UCAAGUCCUGUGCUACACAUCGUAUGUACCGAAUCGGGGAAGGGGAAGGGGAAGGAAAGUAUUAUGUUACGCCGUUCGGAUCUGCACUUC: -0.998
GUCCUGUGCUACACAUCGUAUGUACCGAAUCGGGUUUGGGUUUUUGGGAAAAAAAGGGAAAGUAUUAUGUUACGCCGUUCGGAUCUGCAC: -1.04
GUCCUGUGCUACACAUCGUAUGUACCGAAUCGGGGAAAAAAAGGGGAGGGGAAAGGGGAAAGUAUUAUGUUACGCCGUUCGGAUCUGCAC: 1.08
CAAGUCCUGUGCUACACAUCGUAUGUACCGAAUCGGGAAAAAAAGGGUGGGUGGGAAAGUAUUAUGUUACGCCGUUCGGAUCUGCACUUC: -0.565
CAAGUCCUGUGCUACACAUCGUAUGUACCGAAUCGGUUUGGUUUUUGGUUUUUGGAAAGUAUUAUGUUACGCCGUUCGGAUCUGCACUUC: -1.42
UUCAAAGCGUUCGAAUGAGGAGACUGAUGACUAUGGGAAGGCGCAGGUAGCCAAAAGCAGCAGCAAGGAAUCCAGGUCAUCCAAGCUCCA: -1.14
UGGGAGGUGGAUUUUGUUUAAUUUUUUAGCUCAUUUCCAGGGGUGGGAAUUUUUUUUUAAUAUGUGUCAUGAAUAAAGUUGUUUUUGAAA: 0.0765
UCAAGUCCUGUGCUACACAUCGUAUGUACCGAAUCGGAAAGGAAAGGAAAAAGGAAAGUAUUAUGUUACGCCGUUCGGAUCUGCACUUCC: -0.42
CUCAAGUCCUGUGCUACACAUCGUAUGUACCGAAUCGGCCGGGCCGGCCGGGGAAAGUAUUAUGUUACGCCGUUCGGAUCUGCACUUCCA: 0.304
UGGCCCUGGUGGCAUGCGGGGAGGAAGAGGUGGCCUCAUGUAUCGUGGUGGUCCCGGUGGAAUGUUCAGAGGUGGCCGUGGUGGAGACAG: -0.323

Set 3
Target: RNA binding protein fox-1 homolog 2, RRM domain, GST-SBP tag (RBFOX2, Homo sapiens, UniProt O43251-10, residues 100-194)
Technique: RNA Bind-n-Seq
Form: RNA
Medium: in vitro
Concentration: 365 nM
Notes: natural RNA segment, single round, ends assumed
Relative to: no-protein control
Direction: higher = stronger binding
Measurement: RBNS enrichment (R)
Constant ends, left off below: GGGAGUUCUACAGUCCGACGAUC … UGGAAUUCUCGGGUGCCAA
Construct (chain): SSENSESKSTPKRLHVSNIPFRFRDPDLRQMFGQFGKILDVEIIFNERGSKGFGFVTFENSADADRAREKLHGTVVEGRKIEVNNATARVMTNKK
UUCUUAUGCUUUUUUGGGGGGGGGUGUCAAUUUUUAGUAUAUUAAGAGCUAAAAGAAGUAAAGGUUUCUUAGACUUUUUUUGGGAGGGAGGCGUCAAUUUUUAGUAUAUU: 1.16
ACCAGGCCCAACACCCACCCUGCCUGGCUCCUCUCCUCAUCCAGACUAACUCUACUGUGAAGUCCCACCACAUUCCAGGUUGGAAUUUUAGAUUCAGGGUGGAUUUUCCC: 0.519
UUAGACUGCUCUCCUUAGGGAGGAGCCAAGAGGGAUUUCCAUGCACACUGCCCAUGGUGGGUUUAAGUUACUGAAGUUCGAUUACUCAGGCCUGAUGAAUUUUUAAGACU: 0.454
GCAUUAAAUGUGUUCUCAUGUCGCAGUUUGGCUCAUAGUGAUAAUAAUAGCUGGUAUGUAUCCAGCUCUUGCUAGGUGCUAGGUACUCAAAGUACAUGGCCUGAGUUCUC: 0.27
AUAACUAGACGUCUAUGUGAGAAAAUAUAUGUAUACAUAUAUAUGAUAUGCAGAAGUCACUUUUUUUAUCAGGCUUUAUUCUCCUUACAAAGCCACAGUUUAACUGUCUG: 0.406
UUUACACACCGUGAAUCCAUUCCCAUCAGUCCAUUCCAGUUGGCACCAGCCUGAACCAUUUGGUACCUGGUGUUAACUGGAGUCCUGUUUACAAGGUGGAGUCGGGGCUU: 0.188
CUCCUUUUCUAAACCACCUCUGGGACUCAGCUCCCCCCGCCAAAAAAAAUGGGUCUCCUUCUGGGCUCCAGGAUUGUCUCCCCACUCCAGCAUCCCCAAACUGGUACUCC: 2.3
CAGUGUGCUGGUUGAAGGCCUGAUGCUGUUAUUCCAGGAGACUGCAGGCCCUUGAUGCCAGGACUCUCUCUACUAAGGCCAGUUCAGGUCUGGGAAAGGGAGCUGGCCUA: 0.446
AGAACCUGCUGGCCUUGUUAGACAGCACUUGGGCCUUUGCCAGCAGCAAGAGGUGAAGCGAAGCCACUCUUACCUCUCCCUUCCCCUCCCACCUGCCCCCUGCGUAGGCA: 0.725
UGAGCUCAGCGGGCCCCACCAUCUGCAUCCCUACCUUUGGAGACGAUACCCUCACCAGAUUUCUCAGCAGGGGUGGCCUAGGCCUGGAGCCCUCAGCCAGGGCCGUGGUG: 0.383
CUACUAUUUAUGAGGCCUCUGUGAGGCCAGCUCACUCCCCCUGCCUCUCCCACCCUGGGGGCAGGGUUCUAAGUAUGGGGAGUUCUUAUGCUGGCUUUUAGUGGUGUGUG: 0.406
UUUGUAGGAGACUUGCCAGAGCCGGGCACAUUGAGCUGUGCAACGCCGUGGGCUGCGUCCUUUGGUCCUGUCCCCGCAGCCCUGGCAGGGGGCAUGCGGUCGGGCAGGGG: 1.38

Set 4
Target: Centromere-binding protein 1, full length, N-terminal tag (CBF1, Saccharomyces cerevisiae, UniProt P17106, residues 1-351)
UniProt P17106, sequence (whole entry, looked up): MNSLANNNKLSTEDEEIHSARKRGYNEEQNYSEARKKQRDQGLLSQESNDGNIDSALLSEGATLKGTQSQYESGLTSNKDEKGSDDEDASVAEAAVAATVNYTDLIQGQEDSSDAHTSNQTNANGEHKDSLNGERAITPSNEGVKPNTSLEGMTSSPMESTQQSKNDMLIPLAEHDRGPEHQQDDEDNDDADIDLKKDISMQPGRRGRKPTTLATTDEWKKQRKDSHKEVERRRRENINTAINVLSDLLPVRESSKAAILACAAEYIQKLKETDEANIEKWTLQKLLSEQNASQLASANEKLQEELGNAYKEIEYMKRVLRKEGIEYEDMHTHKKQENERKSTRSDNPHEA
Technique: protein-binding microarray
Form: double-stranded DNA, one strand shown
Medium: in vitro
Concentration: 0.8 µM
Notes: whole 60-bp probe, no competitor
Direction: higher = stronger binding
Measurement: fluorescence intensity
Constant ends, left off below: … GTCTTGATTCGCTTGACGCTGCTG
TGTACGAAGCTATACGGTGTGATTATAGTAGTTAGG: 528 a.u.
CTAGCGTTTGGTAGTCGCGCGTGAATATGCTAATTC: 590 a.u.
GAAGACTAGTTTTGGAGCGTGCGTTCCATCTATTAG: 510 a.u.
GAAATGGGTGTATATCACGTGATATATTATGCTTAG: 38800 a.u.
TGTACGAAGCTATATCACCTGACTATAGTAGTTAGG: 3920 a.u.
GAAATCATCATTATCATCACCATCACACCGCGCTAG: 530 a.u.
CTATGTATTGCTGCTGATGTTTTAGGCACTTAGTTC: 527 a.u.
CTAAGCGGCTGGCAGCATGTGCATGATAATGATTTC: 873 a.u.
GAAGTTTGAATTTCTTGCATCAGGTACTGAAGCTAG: 508 a.u.
CTAGTGAAAAGTGCGCACGCGTATTGCGGCTTATTC: 619 a.u.
GAAAGTATAATAAGTAGGATGGTAATCACATGATAG: 2760 a.u.
GAAAAGTCCTTTAATCTCAGCTGATATCGTCCTTAG: 586 a.u.
GAATGAACAGGATTTTTCCACGTGGATTGGGCATAG: 2470 a.u.
CCTAACTACTATAAACATGTGCTATAGCTTCGTACA: 753 a.u.
GAAATGAACTTGTACGTCACCACTTTGTGCGCATAG: 531 a.u.
GAAAAACGTAGAAACGACATCAGTCGCTTTCGCTAG: 478 a.u.
CTAAATACACAGGGGCACGCCAATGTTCAACTGTTC: 486 a.u.
GAAGGGGTAGTGGCGGTGGTGGTGGCGGCATCCTAG: 507 a.u.
CTAAACTATTAAAATGTCGTGGTATAGCCCGATTTC: 495 a.u.
CTAGCACTATTTTTTCATGTGCTGAACTTCAGGTTC: 680 a.u.
CTAGAATAGTCATCAGGTGTAATGGAAGCTAATTTC: 725 a.u.
TGTACGAAGCTATGTCACCCGACTATAGTAGTTAGG: 602 a.u.
GAAAATTGGTGGTGGACCGTGACCGACACGCAATAG: 812 a.u.

A few entries again (set 1):
2'F-ANA at 1 2 3 11 14 15: 74.9 a.u.
2'F-ANA at 3 4 6 7 8 10 11 12 15: 266 a.u.
2'F-ANA at 2 4 5 6 7 8 9 10 11 12 14 15: 50.9 a.u.
2'F-ANA at 1 2 5 7 8 9 10 11 13 14 15: 70.1 a.u.
